# Measurements of several laboratories.
# Numbered parts are unrelated; each lists some results of a single study. Changes are numbered by the printed parent chain.

# Set 1
# Target: CCNE2, cyclin fold, Cln2 fusion (human)
# Technique: yeast growth competition, sequencing
# Sample: yeast
# Setting: strong parent motif
# Baseline: not given
# Direction: higher = stronger binding
# Starting sequence: viral docking peptide; TSVRRALFTGGSD; partner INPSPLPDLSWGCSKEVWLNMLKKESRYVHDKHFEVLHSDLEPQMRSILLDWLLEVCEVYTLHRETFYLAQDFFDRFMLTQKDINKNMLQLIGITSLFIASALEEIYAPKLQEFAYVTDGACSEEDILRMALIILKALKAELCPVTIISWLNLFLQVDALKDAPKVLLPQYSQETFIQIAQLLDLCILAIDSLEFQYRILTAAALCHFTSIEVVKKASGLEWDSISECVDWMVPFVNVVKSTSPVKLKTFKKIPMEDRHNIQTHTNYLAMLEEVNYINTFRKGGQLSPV
Variant,normalised enrichment score
F8L,0.319
L7E,0.0659
R4T,0.682

# Further values, each from its own experiment
Substance,tested on,assay,test system,conditions,how to read,measurement,value
FLGRIWPS,"HLA class I histocompatibility antigen, B alpha chain, allele B*15:09 (Homo sapiens, UniProt P01889)",peptide-MHC binding,peptide,concentration not given,,binding,inactive
O=C1CCC(N2Cc3c(ccc4c3OCC43CCN(Cc4ccccc4)CC3)C2=O)C(=O)N1 (stereo not drawn),"KCNH2 (Homo sapiens, UniProt Q12809)","hERG current, patch clamp",HEK293 expressing hERG,1 µM,,inhibition,84.9%
CN[C@@H]1C[C@H]2O[C@@](C)([C@@H]1OC)n1c3ccccc3c3c4c(c5c6ccccc6n2c5c31)C(=O)NC4,normal adjacent epithelium patient-derived organoids,CellTiter-Glo,,"1 µM, mean of five organoid lines",baseline: DMSO,viability,2%

# For quick reference, copied from above (further values, each from its own experiment):
Substance,tested on,assay,test system,conditions,how to read,measurement,value
O=C1CCC(N2Cc3c(ccc4c3OCC43CCN(Cc4ccccc4)CC3)C2=O)C(=O)N1 (stereo not drawn),"KCNH2 (Homo sapiens, UniProt Q12809)","hERG current, patch clamp",HEK293 expressing hERG,1 µM,,inhibition,84.9%
